Results from different studies.
Numbered parts are unrelated; each lists some results of a single study.

Block 1
Target: RING finger protein unkempt homolog, zinc fingers 1-6, GST-SBP tag (UNK, Homo sapiens, UniProt Q9C0B0, residues 30-357)
Method: RNA Bind-n-Seq
Form: RNA
Sample: in vitro
Concentration: not given
Setting: RNA with constant flanks, human and mouse sites, ends assumed
Baseline: input RNA pool
Reading: higher = stronger binding
Measurement: bound/input enrichment
Target sequence (chain): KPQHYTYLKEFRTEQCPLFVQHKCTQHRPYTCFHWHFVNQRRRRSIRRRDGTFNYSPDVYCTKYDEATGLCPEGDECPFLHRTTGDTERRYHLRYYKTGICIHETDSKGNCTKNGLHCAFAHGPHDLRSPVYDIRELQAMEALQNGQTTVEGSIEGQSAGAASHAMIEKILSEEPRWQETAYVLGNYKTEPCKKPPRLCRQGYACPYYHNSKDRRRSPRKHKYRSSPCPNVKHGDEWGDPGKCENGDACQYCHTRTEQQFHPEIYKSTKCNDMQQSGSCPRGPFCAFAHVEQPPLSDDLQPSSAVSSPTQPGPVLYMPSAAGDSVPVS
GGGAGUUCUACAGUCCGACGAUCCCACAGCCCUUAUUACAGCAGCCUCAGCAAAAAGCUGGUUUAUUGCAGCCUCCUGUUCGUAUAGUUUCACAGCCACAACCGGCACGACGAUUAGAUCCCCCAUCCCGAUUUUCAGGAAGACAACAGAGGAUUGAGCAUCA: 1.24 ratio
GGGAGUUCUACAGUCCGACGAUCUGAGACUGUAGUUGGGUGUCCCGGGUGCCCAUGGACUGCUUGAUGCUGCUUAACUCUUCAUUUAGAUAACUUUCUAGUGACAGCUUCUUCCAGUGGUGACAAAAUAGUGGUGUCAAGUUGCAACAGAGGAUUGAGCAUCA: 1.13 ratio
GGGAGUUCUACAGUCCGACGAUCCCUCCACCUUCACCGUUGCCAUUUCCAACACAAGCUAUCCUUCCUCCAGCCCCAUCGAGCUACUUUUCUCAUCCAACAAUCAGAUAUCCUCCCCACCUGAAUCCUCAGGAUACUCUGAAGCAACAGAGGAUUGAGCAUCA: 0.586 ratio
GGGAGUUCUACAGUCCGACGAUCCUUUCUUUUUGGCCGUCUUUAAAAAAAUUUUUUUUUUUAAUCUAUAAAAUAGACAAGAGCUAGUUCUACAAUGUCCAAGUCAUUCCAGCAGUCAUCUCUCAGUAGGGACUCACAGGGUCACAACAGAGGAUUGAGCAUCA: 0.818 ratio
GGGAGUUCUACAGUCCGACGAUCGCUGGUGACUGGAAGUGUCCUAAUCCCACCUGUGAGAAUAUGAACUUCUCUUGGAGGAAUGAAUGCAACCAGUGUAAGGCCCCUAAACCAGAUGGCCCAGGAGGGGGACCAGGUGGCUCUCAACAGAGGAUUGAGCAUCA: 0.233 ratio
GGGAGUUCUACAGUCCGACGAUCUUUUAUGCACCCACCGCAGCUGUUGAAAGCAUGGUGGAGCACUUGUCUCGAGAUAUAGAUGUGAUUAGAGGGAAUAUUGUCAAACACCCUCUGACCCAGGAACUAAAAGAAUGUGAAGGGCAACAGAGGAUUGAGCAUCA: 0.246 ratio
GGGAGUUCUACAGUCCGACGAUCCCAGAAGUGGAAUCUUUACAGGACUAUAAGAAUACAUUUCCCAAAUGGAAACCAGGAAGCCUAGCAUCCCAUGUCAAAAACUUGGAUGAAAAUGGCUUGGAUUUGCUCUCGAAAAUGUUACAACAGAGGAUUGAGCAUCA: 0.0933 ratio
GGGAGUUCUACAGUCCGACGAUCCUGCGCUGUCCGCCCUGCGGGGGAGGAACCCGGAGCACGCAGCAGAGAUGUCAGCUUAUUUAUAGGAAUUGUCCAAAGCCACAGUCAUGGUGGAUGUAGGAAAGUGGCCAAUCUUCACUCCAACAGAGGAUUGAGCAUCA: 1.19 ratio

Block 2
Target: Interferon regulatory factor 3, full length, phosphomimetic (IRF3, Homo sapiens, UniProt Q14653, residues 1-427, S386D/S396D/S398D/S402D/T404D/S405D)
Method: protein-binding microarray
Form: double-stranded DNA, one strand shown
Sample: in vitro
Concentration: 2540 nM top
Setting: 60-bp whole probe
With: salmon DNA 0.4 mg/ml
Baseline: random background probes
Reading: higher = stronger binding
Measurement: fitted relative affinity
Shared flanks, not repeated: GCCTAGCAC … GTCTTGATTCGCTTGACGCTGCTG
Target sequence (chain): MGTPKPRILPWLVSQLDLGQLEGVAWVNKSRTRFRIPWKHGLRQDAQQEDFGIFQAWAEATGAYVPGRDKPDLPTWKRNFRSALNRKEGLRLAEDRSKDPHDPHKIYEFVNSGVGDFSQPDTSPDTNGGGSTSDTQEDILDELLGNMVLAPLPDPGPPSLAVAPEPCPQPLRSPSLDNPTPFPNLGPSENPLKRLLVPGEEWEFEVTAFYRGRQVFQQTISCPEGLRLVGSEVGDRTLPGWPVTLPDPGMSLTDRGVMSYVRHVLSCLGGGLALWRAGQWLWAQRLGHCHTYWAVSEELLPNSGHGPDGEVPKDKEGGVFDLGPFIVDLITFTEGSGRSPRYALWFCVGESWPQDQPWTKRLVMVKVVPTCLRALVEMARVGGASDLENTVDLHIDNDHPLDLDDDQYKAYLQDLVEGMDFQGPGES
GTAGGTTTCGGGTATCGGTTAGTGCTA: 4.62 z-score
TTCTCTTTCATTGCTGCCCTGTGCTAG: 2.2 z-score
CCCTAATTCTGATTGGATAAGTGCTAG: 1.22 z-score
GACGGACTGGACTATAGGGACGTGCTA: -0.666 z-score
GACGATTCCAGACTGGAGACGTGCTAG: 0.865 z-score
GTCGGACTGGACTTTCGGGACGTGCTA: 0.357 z-score
TTAGGTATCGTACTGCTTTAGTGCTAG: 0.926 z-score
TTAGGACTGGGAATCGGTTAGTGCTAG: -0.447 z-score
TTAGGACTGCTACTGCTATAGTGCTAG: -0.545 z-score
GACGGTTTCGTTTCCGGGACGTGCTAG: 8.52 z-score
TTAGGAGTGGGTTTCGGTTAGTGCTAG: 3.33 z-score
TCACATTTTCGTTTTTAACTGTGCTAG: 4.86 z-score
TTCCCTTTTAAGTTCTCTGAGTGCTAG: 5.49 z-score
GACAATTTGGAAACCGAGTGGTGCTAG: 1.3 z-score
TGAAGACTCTCTTGTCTGGATGTGCTA: -0.732 z-score
GACGAGCTGAGTCTCGAGACGTGCTAG: -0.381 z-score
GAAGACTTTGGTTTGTACACGTGCTAG: -0.552 z-score
TTAGGACTGGGTTTCGATTAGTGCTAG: 1.59 z-score
TTAGATTTCAGTCACGATTAGTGCTAG: 0.553 z-score

Block 3
Target: Centromere-binding protein 1, full length, His-tagged (CBF1, Saccharomyces cerevisiae, UniProt P17106, residues 1-351)
Chain of UniProt P17106 (whole entry, looked up): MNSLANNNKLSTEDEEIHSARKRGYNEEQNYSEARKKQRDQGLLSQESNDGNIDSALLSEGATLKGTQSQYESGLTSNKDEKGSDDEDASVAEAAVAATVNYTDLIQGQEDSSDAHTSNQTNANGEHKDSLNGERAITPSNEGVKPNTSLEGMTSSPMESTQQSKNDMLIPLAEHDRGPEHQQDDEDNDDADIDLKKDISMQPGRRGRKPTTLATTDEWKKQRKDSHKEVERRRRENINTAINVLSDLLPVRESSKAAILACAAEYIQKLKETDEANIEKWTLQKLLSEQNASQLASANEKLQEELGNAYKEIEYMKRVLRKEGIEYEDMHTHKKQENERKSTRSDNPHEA
Method: competition protein-binding microarray
Form: double-stranded DNA, one strand shown
Sample: in vitro
Concentration: 2 µM
Setting: whole 60-bp probe, lowest competitor level
With: Pho4 competitor, 0.05 µM
Reading: higher = stronger binding
Measurement: fluorescence intensity
CTTTCCCGATCTTTTCACGTGTCGTTAGCACATTTGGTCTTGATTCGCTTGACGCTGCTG: 919 a.u.
GTCTTGTCTCATTGTGAAGTGGGTGTCCCCACTTCAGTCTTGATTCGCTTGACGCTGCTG: 67.5 a.u.
TCTATGGCATGTAGAGTCGTGATGGCTGCTGTACGCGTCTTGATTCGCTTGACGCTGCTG: 85 a.u.
AAAACTTACTTCCGTCACATGCAAGACGTAGACCCAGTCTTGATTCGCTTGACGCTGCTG: 382 a.u.
CTTCTGTAAATTTGGGTTGTGGGTGGACGCGCCCCGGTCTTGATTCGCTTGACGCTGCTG: 91.5 a.u.
TAAGGAAAAACTCACCACGTTCTTCTGAACATGTTCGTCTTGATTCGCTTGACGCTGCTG: 96.7 a.u.
CAGGCGTCCACCGCTCCCGTGTCGGTGTAACCAAGGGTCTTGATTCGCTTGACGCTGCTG: 64 a.u.
GAAGATTGGGTCTGCGTTGTGACGGAAGTGCCAGATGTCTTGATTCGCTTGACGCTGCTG: 62.8 a.u.
CAAACTCTCCGAGGACACGTGCCGAACAAAGAATGTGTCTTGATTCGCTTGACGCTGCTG: 2770 a.u.
CTTTCCCGATCTTGTCACAGCACTTTAGCACATTTGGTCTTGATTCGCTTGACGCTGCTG: 78 a.u.
GTTGTTGGGATCCGTCACGTGTAGGCAAAACGCGTTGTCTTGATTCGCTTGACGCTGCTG: 4000 a.u.
CTTTCCCGATCTTGGCGTGTGGGTGTAGCACATTTGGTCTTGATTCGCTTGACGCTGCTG: 72.5 a.u.
AGAGCAAATAGTTGAAAGGTGTGCCATAAGAAGGTGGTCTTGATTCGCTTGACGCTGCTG: 89.1 a.u.
TGTTGCCAACCATGCTGCGTGCCGAATTAGGCCTATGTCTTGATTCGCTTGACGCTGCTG: 66.1 a.u.
TTATCTCAATGGGTTTACGTGGGTATAGATTACGCTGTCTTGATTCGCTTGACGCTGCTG: 86.9 a.u.
AAACTGCTGTCATAACGCGTGGTGATGTGGTTTTGCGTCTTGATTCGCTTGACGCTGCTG: 65.8 a.u.
GCAATACATGAGAACTTCGTGCCAGCAAGGCCCAGTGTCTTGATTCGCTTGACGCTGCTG: 56.4 a.u.
CACACCGCGAGAAACATCGTGGAAGATTACGGAGCTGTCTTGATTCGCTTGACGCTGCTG: 63.2 a.u.
AAGATCCGGATCAAGACCGTGATGGCCAGCGCGATAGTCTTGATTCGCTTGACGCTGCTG: 56.5 a.u.

Block 4
Target: Histone acetyltransferase KAT6A, winged helix 1, GST fusion (KAT6A, Homo sapiens, UniProt Q92794, residues 1-85)
Method: protein binding microarray
Form: double-stranded DNA, one strand shown
Sample: in vitro
Concentration: not given
Setting: 8-mer, flanks averaged, mean of 2 arrays, mostly near background
Baseline: not given
Reading: higher = stronger binding
Measurement: E-score
Target sequence (chain): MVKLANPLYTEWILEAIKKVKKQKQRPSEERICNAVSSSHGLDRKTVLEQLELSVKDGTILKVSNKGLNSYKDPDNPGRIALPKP
CTTGACGA: -0.153
TACGTTGA: -0.0438
ATACTAAA: -0.068
AGGTACCT: -0.27
GCAATCGC: 0.189
CGTGAAGA: 0.0974
CCCTTTAC: 0.0368
ACGCAAAA: 0.212
GATGTCCC: 0.149
CATAATAG: 0.0609
GGTCTCTA: -0.0786
AGTGTGTA: -0.0418
GCCGCCAA: 0.303
ATGATTAA: -0.218
ATAAGGTC: -0.0818
AATGCACG: -0.0145
CTAGGTTC: -0.109
GGATCCCC: 0.161
CGTAGCAG: -0.0283
ACGGTTAA: 0.11
TAACAAAA: -0.221
GGTTTGGA: -0.135
CGTTCCAA: -0.176
ATTTTCTG: -0.221
CAACCAAA: -0.0697

For quick reference, copied from above (block 2):
CCCTAATTCTGATTGGATAAGTGCTAG: 1.22 z-score
GACGATTCCAGACTGGAGACGTGCTAG: 0.865 z-score
GACGGTTTCGTTTCCGGGACGTGCTAG: 8.52 z-score
TTCCCTTTTAAGTTCTCTGAGTGCTAG: 5.49 z-score
